Experimental data pooled from the literature.
Lines come from different studies, so protocols differ.

Structure (SMILES)	test	test system	setting	half-life
CSCc1cn(-c2cccc(C(=O)N3CCC(c4nc(-c5ccccc5)n[nH]4)CC3)c2)nn1	–	human liver microsomes	pH 7.4, with: NADPH	0.07 h
CC(C)(C)C12CC(CN3CCN(C(c4ccccc4)c4ccc(Cl)cc4)CC3)(C1)C2 (centres unmarked)	metabolic stability	human liver microsomes	–	~3.25 h
CC(=O)O[C@H]1C(=O)[C@@]2(C)[C@H]([C@H](OC(=O)c3ccccc3)[C@]3(O)C[C@H](OC(=O)[C@H](OCOP(=O)(O)O)[C@@H](NC(=O)c4ccccc4)c4ccccc4)C(C)=C1C3(C)C)[C@]1(OC(C)=O)CO[C@@H]1C[C@@H]2O	–	HBSS	10 µM, 2 h incubation, pH 6.5	> 2 h
OB(O)c1sccc1/C=N/OCc1ccccc1	–	PBS	80 µM, pH 7.4, with: fructose 1 equiv	2.05 h
CCCCC=CC(=O)NC(Cc1cc(F)cc(F)c1)C(=O)NC1COC(=O)C2CCCN2C(=O)C(C)NC(=O)C(C)N(C)C(=O)C2CCCN2C1=O (centres unmarked)	H-D exchange, 1H NMR, item: alanine amide hydrogen	CD3OD	25 °C	0.435 h
CC(C)C[C@H](NC(=O)[C@H](Cc1ccc(O)cc1)NC(=O)[C@H](CC(N)=O)NC(=O)[C@H](CO)NC(=O)[C@H](CCCNC(=N)N)NC(=O)[C@H](Cc1ccc(O)cc1)NC(=O)CNC(=O)[C@H](CCCNC(=N)N)NC(=O)[C@H](Cc1c[nH]cn1)NC(=O)[C@H](CO)NC(=O)[C@H](Cc1c[nH]cn1)NC(=O)[C@H](Cc1c[nH]cn1)NC(=O)[C@H](CCCCN)NC(=O)[C@H](CCC(=O)O)NC(=O)[C@H](Cc1c[nH]cn1)NC(=O)[C@H](Cc1ccccc1)NC(=O)[C@H](CCCCN)NC(=O)[C@H](CCCNC(=N)N)NC(=O)[C@H](CCCCN)NC(=O)[C@H](Cc1ccc(O)cc1)NC(=O)CNC(=O)[C@H](Cc1c[nH]cn1)NC(=O)[C@H](Cc1c[nH]cn1)NC(=O)[C@H](CCCNC(=N)N)NC(=O)[C@H](CCCCN)NC(=O)[C@H](C)NC(=O)[C@H](Cc1c[nH]cn1)NC(=O)[C@H](CO)NC(=O)[C@@H](N)CC(=O)O)C(=O)N[C@@H](Cc1ccc(O)cc1)C(=O)N[C@@H](CC(=O)O)C(=O)N[C@@H](CC(N)=O)C(=O)O	–	human parotid secretion	37 °C, median	6 h
CC(C)Cn1cc(Cc2cccc(OC(C)(C)C(=O)O)c2)c2ccc(C(=O)N[C@@H](C)c3cccc(C(C)(C)C)c3)c(F)c21	–	human liver microsomes	–	0.442 h
Clc1cnccn1	–	–	pH 7.4	77.1 h
O=CC1C(=O)Nc2ccccc21 (centres unmarked)	reactivity with N-α-acetyl-lysine, HPLC-MS	–	pH 10.2	65.8 h
Cc1c(Cc2ccc(Cl)c(O[C@H](C)C(=O)O)c2)c2ccc(C(=O)N[C@@H](C)c3ccc(C(C)(C)C)cc3)cc2n1CC(C)C	–	mouse liver microsomes	1 µM, with: microsomes 1 mg/mL	> 1 h
Brc1ncc(-c2ccccc2)o1	–	–	pH 7.4	78.1 h
Cc1c(Cc2cccc(OC(C)(C)C(=O)O)c2)c2ccc(C(=O)N[C@@H](C)c3cccc(OC(F)(F)F)c3)cc2n1C	–	human liver microsomes	–	0.987 h
C/C(N)=N/C(=N\S(=O)(=O)c1ccc(C(F)(F)F)cc1)N1C[C@H](c2ccccc2)C(c2ccc(Cl)cc2)=N1	–	mouse liver cytosol	–	1.76 h
Cc1c(Cc2cccc(OC(C)(C)C(=O)O)c2)c2ccc(C(=O)N[C@H](C)c3ccc(C(C)(C)C)cc3)cc2n1C	–	human liver microsomes	–	0.689 h
CCN(CC)c1ccc2cc(C(=O)ON3C(=O)CCC3=O)c(=O)oc2c1	chemical stability, HPLC-MS	borate buffered saline	pH 10.2, no N-acetyl-lysine	0.1 h
Cc1c(Cc2cc(F)cc(OC(C)(C)C(=O)O)c2)c2ccc(C(=O)N[C@@H](C)c3cccc(C(C)(C)C)c3)cc2n1CC(C)C	–	mouse liver microsomes	1 µM, with: microsomes 1 mg/mL	> 1 h
O=Cc1cc(C(F)(F)F)ccc1B(O)O	reactivity with N-α-acetyl-lysine, HPLC-MS	–	pH 10.2	110 h

For quick reference, copied from above:
Structure (SMILES)	test	test system	setting	half-life
CC(C)C[C@H](NC(=O)[C@H](Cc1ccc(O)cc1)NC(=O)[C@H](CC(N)=O)NC(=O)[C@H](CO)NC(=O)[C@H](CCCNC(=N)N)NC(=O)[C@H](Cc1ccc(O)cc1)NC(=O)CNC(=O)[C@H](CCCNC(=N)N)NC(=O)[C@H](Cc1c[nH]cn1)NC(=O)[C@H](CO)NC(=O)[C@H](Cc1c[nH]cn1)NC(=O)[C@H](Cc1c[nH]cn1)NC(=O)[C@H](CCCCN)NC(=O)[C@H](CCC(=O)O)NC(=O)[C@H](Cc1c[nH]cn1)NC(=O)[C@H](Cc1ccccc1)NC(=O)[C@H](CCCCN)NC(=O)[C@H](CCCNC(=N)N)NC(=O)[C@H](CCCCN)NC(=O)[C@H](Cc1ccc(O)cc1)NC(=O)CNC(=O)[C@H](Cc1c[nH]cn1)NC(=O)[C@H](Cc1c[nH]cn1)NC(=O)[C@H](CCCNC(=N)N)NC(=O)[C@H](CCCCN)NC(=O)[C@H](C)NC(=O)[C@H](Cc1c[nH]cn1)NC(=O)[C@H](CO)NC(=O)[C@@H](N)CC(=O)O)C(=O)N[C@@H](Cc1ccc(O)cc1)C(=O)N[C@@H](CC(=O)O)C(=O)N[C@@H](CC(N)=O)C(=O)O	–	human parotid secretion	37 °C, median	6 h
Brc1ncc(-c2ccccc2)o1	–	–	pH 7.4	78.1 h
O=Cc1cc(C(F)(F)F)ccc1B(O)O	reactivity with N-α-acetyl-lysine, HPLC-MS	–	pH 10.2	110 h
